{"data": "Experimental data gathered from unrelated publications", "cell line": "DU-145", "note": "Each line is one published result; not all experiments were run side by side."}
{"Structure (SMILES)": "CCCC(C)NC(=O)C(Nc1ccccc1C(=O)c1ccccc1)c1cn(C)c2ccccc12 (centres unmarked)", "read-out": "cell growth or viability", "method": "MTT", "time": "72 h", "endpoint": "GI50", "result": "11 µM"}
{"Structure (SMILES)": "COc1cc(CNC(=O)C[C@H](C)CCC=C(C)C)ccc1OCc1cn(-c2ccc(C#N)cc2)nn1", "method": "SRB", "tested at": "10 µM", "time": "48 h", "endpoint": "growth percent", "result": "73.7%"}
{"Structure (SMILES)": "CC(=O)OC[C@H]1O[C@@H](Sc2sc(C(=O)c3ccc(Br)cc3)c(N)c2-c2nc3ccccc3s2)[C@H](OC(C)=O)[C@@H](OC(C)=O)[C@@H]1OC(C)=O", "method": "SRB", "tested at": "10 µM", "time": "48 h", "reference": "untreated", "endpoint": "growth", "result": "106%"}
{"Structure (SMILES)": "CC(=O)OCC1(O)C(Nc2cccc(C(C)=O)c2)C(N)C(NC(=O)N(C)C)(C(C)OC(C)=O)C1(C)O (centres unmarked)", "read-out": "cell growth or viability", "method": "SRB", "endpoint": "GI50", "result": "0.34 µM"}
{"Structure (SMILES)": "CC/C=C\\C/C=C\\C/C=C\\C/C=C\\C/C=C\\C/C=C\\CCC(=O)Nc1ccn(C2OC(CO)C(O)C2(F)F)c(=O)n1 (centres unmarked)", "read-out": "cell growth or viability", "method": "SRB", "endpoint": "GI50", "result": "0.0396 µM"}
{"Structure (SMILES)": "O=C1Nc2ccccc2/C1=N\\Nc1nnc2n1N=C(c1ccc(Cl)cc1)CS2", "read-out": "cell growth or viability", "method": "SRB", "tested at": "10 µM", "endpoint": "inhibition", "result": "23%"}
{"Structure (SMILES)": "COc1cc(CNC(=O)C[C@H](C)CCC=C(C)C)ccc1OCc1cn(-c2cccc(Cl)c2)nn1", "method": "SRB", "tested at": "10 µM", "time": "48 h", "endpoint": "growth percent", "result": "86.6%"}
{"Structure (SMILES)": "Cc1ccc(C(C)C)cc1.O=C(N=P(c1ccccc1)(c1ccccc1)c1ccccc1)c1ccccn1.[Cl-].[Cl-].[Ru+2]", "method": "MTT", "reference": "IC50 RPTC over IC50 DU-145", "endpoint": "selectivity ratio", "result": "9 fold"}
{"Structure (SMILES)": "COc1cc(CNC(=O)C[C@H](C)CCC=C(C)C)ccc1OCc1cn(-c2ccccc2F)nn1", "method": "SRB", "tested at": "10 µM", "time": "48 h", "endpoint": "growth percent", "result": "102%"}
{"Structure (SMILES)": "COc1ccc(C2=Nn3c(NN=C4C(=O)N(Cc5ccccc5)c5ccc(Cl)cc54)nnc3SC2)cc1", "read-out": "cell growth or viability", "method": "SRB", "tested at": "10 µM", "endpoint": "inhibition", "result": "19%"}
{"Structure (SMILES)": "CCC(=C(c1ccc(Cl)cc1)c1ccc(OCCCN(C)C)cc1)c1ccc(OC)cc1", "read-out": "cell growth or viability", "endpoint": "GI50", "result": "3.48 µM"}
{"Structure (SMILES)": "CC(=O)OC[C@H]1O[C@@H](Sc2sc(C(=O)c3ccc(C)cc3)c(N)c2-c2nc3ccccc3s2)[C@H](OC(C)=O)[C@@H](OC(C)=O)[C@@H]1OC(C)=O", "method": "SRB", "tested at": "10 µM", "time": "48 h", "reference": "untreated", "endpoint": "growth", "result": "42.1%"}
{"Structure (SMILES)": "COc1cc(CNC(=O)C[C@H](C)CCC=C(C)C)ccc1OCc1cn(-c2cccc([N+](=O)[O-])c2)nn1", "method": "SRB", "tested at": "10 µM", "time": "48 h", "endpoint": "growth percent", "result": "84.5%"}
{"Structure (SMILES)": "C[N+]1(CC(=O)OC2CCCCCCCCCCC2)CCCCC1", "read-out": "cell viability", "method": "CellTiter Blue", "time": "96 h", "endpoint": "ED20", "result": "2.3 µM"}
{"note": "A few entries again:"}
{"Structure (SMILES)": "COc1cc(CNC(=O)C[C@H](C)CCC=C(C)C)ccc1OCc1cn(-c2cccc([N+](=O)[O-])c2)nn1", "method": "SRB", "tested at": "10 µM", "time": "48 h", "endpoint": "growth percent", "result": "84.5%"}
